Experimental data of several laboratories.
Values joined by “and” are separate records of one study, mostly repeats; a detail may differ. ± marks the error that the study gave.
UniProt Q99527, sequence (whole entry, looked up): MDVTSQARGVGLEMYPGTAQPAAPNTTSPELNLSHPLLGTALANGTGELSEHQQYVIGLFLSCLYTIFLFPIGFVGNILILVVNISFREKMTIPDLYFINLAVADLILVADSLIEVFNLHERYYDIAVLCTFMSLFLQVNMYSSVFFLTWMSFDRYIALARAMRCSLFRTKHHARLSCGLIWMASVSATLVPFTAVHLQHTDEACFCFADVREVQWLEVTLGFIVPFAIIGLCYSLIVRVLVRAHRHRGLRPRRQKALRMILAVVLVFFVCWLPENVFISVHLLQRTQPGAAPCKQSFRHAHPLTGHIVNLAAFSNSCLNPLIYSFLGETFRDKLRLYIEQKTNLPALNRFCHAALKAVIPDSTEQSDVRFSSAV
UniProt Q01726, sequence (whole entry, looked up): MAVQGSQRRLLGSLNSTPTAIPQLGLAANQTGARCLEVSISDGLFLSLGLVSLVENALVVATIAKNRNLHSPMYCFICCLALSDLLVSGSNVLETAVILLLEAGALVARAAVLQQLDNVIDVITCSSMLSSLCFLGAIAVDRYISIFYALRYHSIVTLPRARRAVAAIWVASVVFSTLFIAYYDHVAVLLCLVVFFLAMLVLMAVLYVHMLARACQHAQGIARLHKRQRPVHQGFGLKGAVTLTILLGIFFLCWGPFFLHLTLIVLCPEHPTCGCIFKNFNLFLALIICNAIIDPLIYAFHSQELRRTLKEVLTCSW
UniProt P17812, sequence (whole entry, looked up): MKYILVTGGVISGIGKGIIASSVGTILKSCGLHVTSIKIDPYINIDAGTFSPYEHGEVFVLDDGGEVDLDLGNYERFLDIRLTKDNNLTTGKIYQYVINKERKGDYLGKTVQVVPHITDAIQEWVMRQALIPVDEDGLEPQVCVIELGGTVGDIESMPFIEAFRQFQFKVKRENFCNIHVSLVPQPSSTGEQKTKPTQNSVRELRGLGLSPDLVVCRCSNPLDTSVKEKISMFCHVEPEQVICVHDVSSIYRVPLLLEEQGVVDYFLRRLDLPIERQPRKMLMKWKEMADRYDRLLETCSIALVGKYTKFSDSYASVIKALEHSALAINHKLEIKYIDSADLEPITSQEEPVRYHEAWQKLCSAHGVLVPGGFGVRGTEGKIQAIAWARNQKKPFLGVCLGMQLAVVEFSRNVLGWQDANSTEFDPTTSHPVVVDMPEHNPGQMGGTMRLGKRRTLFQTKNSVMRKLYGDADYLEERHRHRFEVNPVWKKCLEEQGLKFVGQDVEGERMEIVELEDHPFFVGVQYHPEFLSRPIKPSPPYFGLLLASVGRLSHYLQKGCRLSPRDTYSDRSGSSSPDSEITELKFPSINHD

C[C@@H](O)[C@@H](CO)NC(=O)[C@@H](CCCNC(=N)N)NC(=O)[C@@H]1CCCN1C(=O)[C@@H]1CSSC[C@H](NC(=O)[C@H](Cc2ccccc2)NC(=O)CN2CCN(CC(=O)O)CCN(CC(=O)O)CCN(CC(=O)O)CC2)C(=O)N[C@@H](Cc2ccc(O)cc2)C(=O)N[C@@H](Cc2ccccc2)C(=O)N[C@@H](CCC(N)=O)C(=O)N[C@@H](CC(N)=O)C(=O)N1 [gallium-68 labelled]
tissue uptake (Wistar rat, healthy, Pituitary gland; intravenous, 8 MBq, 120 min): 0.2 %ID/g

CO[C@H]1/C=C\C=C(/C)C(=O)NC2=CC(=O)C(NCCN(C)C)=C(C[C@@H](C)C[C@H](OC)[C@H](O)[C@@H](C)/C=C(\C)[C@@H]1OC(N)=O)C2=O
MyBP-C level change (human cells; plate-normalised; concentration not given, hit retest; reference: vehicle controls, SDs below control): 5.55 SD

COc1ccc([C@H]2c3[nH]c4ccc(Cl)cc4c3CCN2C(=O)Oc2ccc(Cl)cc2)cc1
inhibition (human dermal fibroblasts with PBMC; cytokine secretion, measured: sIL-2; 0.01 µM, 48 h): 47%

CCOC(=O)c1ccc(N2C(N)=C(C#N)C3(C(=O)Nc4ccccc43)C(C#N)=C2O)cc1 (stereo not shown)
mRNA fold change (Caco-2; qRT-PCR, measured: Bax; IC50; reference: untreated): 7.51

O=C(O)[C@H]1O[C@@H](Oc2cc(-c3oc4cc(O)cc(O)c4c(=O)c3O)ccc2O)[C@H](O)[C@@H](O)[C@@H]1O
Jmax (MDCKII-UGT1A1/MRP2 cells; glucuronide efflux, substrate): 16 ± 5.53 pmol/mg/min

COc1cc(Nc2ncc(F)c(Nc3ccc4c(n3)NC(=O)C(C)(C)O4)n2)cc(OC)c1OC
IC50 (MC1R (Homo sapiens, UniProt Q01726)): > 10 µM

CC[C@H](C)[C@@H]1NC(=O)[C@@H]2CCCN2C(=O)[C@H](CC(C)C)NC(=O)[C@H](CC(C)C)NC(=O)CNC(=O)[C@@H](NC(=O)[C@@H](NC(=O)[C@H](CC(=O)O)NC(=O)CNC(=O)[C@@H](NC(=O)[C@H](C)NC(=O)CNC(=O)[C@H](CCCCN)NC(=O)[C@H](CC(C)C)NC(=O)[C@H](CC(C)C)NC(=O)[C@H](CCCCN)NC(=O)CNC(=O)[C@@H](NC(=O)[C@@H](N)CC(C)C)C(C)C)C(C)C)C(C)C)CSSC[C@@H](C(=O)O)NC1=O
log2 fold change (RNA-seq, measured: novel.181 mRNA; mouse traumatic brain injury, frontal cortex and hippocampus; dose not given; reference: TBI plus compound vs TBI): -1.67

COc1ccc2c(c1)[nH]c1c(C)nccc12
DNA methylation (DU-145; bisulfite pyrosequencing, measured: RASSF1A promoter CpG site 14; 10 µM, 16 h): 90.3%

O=C(Nc1ccc2[nH]nc(-c3ccncc3)c2c1)[C@@H]1CCN(CC(=O)N2CCN(c3ccc(-c4ncccn4)cc3)CC2)C1
PI-positive cells (HCT116; IncuCyte; concentration not given, 8 (unit not given)): 2.17 count and 3.92 count and 2.92 count

C[C@H]1CN(c2n[nH]c3nc(N[C@H]4CC[C@H](NS(=O)(=O)CCC(F)(F)F)CC4)ncc23)CCO1
remaining binding (CTP synthase 1 (Homo sapiens, UniProt P17812); Kinobeads competition, measured: CTPS; 0.16 µM, unit not given; reference: vehicle): 1.06

Oc1ccc2c3c1O[C@H]1[C@@H](O)CC[C@@]4(O)[C@@H](C2)N(CC2CCC2)CC[C@]314
log2 fold change (GPER1 (Homo sapiens, UniProt Q99527); β-arrestin recruitment, TANGO luminescence, measured: GPER; concentration not given; reference: basal luminescence): -0.086

Nc1ncnc2c1ncn2[C@@H]1O[C@@H]2COP(=O)(O)O[C@H]3[C@@H](O)[C@H](n4cnc5c(=O)[nH]cnc54)O[C@@H]3COP(=O)(O)O[C@H]2[C@H]1O
pathway fold enrichment (HFF-1; RNA sequencing, measured: Serine biosynthesis; downregulated pathway; reference: Zika virus alone): 23.8

COc1cc2c(Oc3ccc4[nH]c(C)cc4c3F)ccnc2cc1OCC1(N)CC1
grade 3 bone pain (paediatric refractory sarcoma patients; 10 mg): 0%

Cn1cncc1C1=CN(c2ncnc3[nH]cnc23)CCS1
CC50 (SK-MEL-5; melanoma cell line): 112 µM

CO[C@H]1C[C@@H]2CC[C@@H](C)[C@@](O)(O2)C(=O)C(=O)N2CCCC[C@H]2C(=O)O[C@H]([C@H](C)C[C@@H]2CC[C@@H](OC(=O)NCCOCCOCCOCCOCCOCCOCCOCCOCCC(=O)N3CCc4cc(Cn5nc(-c6ccc7oc(N)nc7c6)c6c(N)ncnc65)ccc4C3)[C@H](OC)C2)C[C@@H](O)[C@H](C)/C=C(\C)[C@@H](O)[C@@H](OC)C(=O)[C@H](C)C[C@H](C)/C=C/C=C/C=C/1C
fatigue incidence (patients with advanced solid tumours; intravenous, 16 mg weekly, any grade): 50%

CN1CCN(C2(CNC3CCN(c4cccc(-c5cc6cc(F)ccc6[nH]5)c4)CC3)CCC2)CC1
CC50 (SK-MEL-5): 5.64 µM

CC[C@H](C)[C@H](NC(=O)[C@H](Cc1ccccc1)NC(=O)[C@H](CCC(=O)O)NC(=O)[C@H](CCCNC(=N)N)NC(=O)[C@H](C)NC(=O)[C@H](C)NC(=O)[C@H](CCC(N)=O)NC(=O)[C@H](CCC(=O)O)NC(=O)[C@H](CCC(=O)O)NC(=O)[C@H](CC(C)C)NC(=O)[C@H](Cc1ccc(O)cc1)NC(=O)[C@H](CO)NC(=O)[C@H](CO)NC(=O)[C@@H](NC(=O)[C@H](CC(=O)O)NC(=O)[C@H](CO)NC(=O)[C@@H](NC(=O)[C@H](Cc1ccccc1)NC(=O)[C@@H](NC(=O)CNC(=O)[C@H](CCC(=O)O)NC(=O)[C@H](C)NC(=O)CCc1c[nH]cn1)[C@@H](C)O)[C@@H](C)O)C(C)C)C(=O)N[C@@H](C)C(=O)N[C@@H](Cc1c[nH]c2ccccc12)C(=O)N[C@@H](CC(C)C)C(=O)N[C@H](C(=O)N[C@@H](CCCNC(=N)N)C(=O)NCC(=O)N[C@@H](CCCNC(=N)N)C(=O)N[C@@H](CCCCNC(=O)COCCOCCNC(=O)COCCOCCNC(=O)CC[C@H](NC(=O)CCCCCCCCCCCCCCCCC(=O)O)C(=O)O)C(=O)NCC(=O)NCC(=O)N[C@@H](CO)C(=O)N[C@@H](CCCCNc1c(NCCCCCN(O)C(=O)CCC(=O)NCCCCCN(O)C(=O)CCC(=O)NCCCCCN(O)C(C)=O)c(=O)c1=O)C(=O)O)C(C)C [zirconium-89 labelled]
tissue uptake (rat, heart; sc, 3 nmol/kg, 168 h, ex vivo): 0.06 %ID/g

C[C@]1(CO)Cc2ncn(-c3ccc(C#N)c(Cl)c3)c2C(=O)O1
subjects with drug-related TEAE (healthy European subjects; dose not given, single dose, all doses): 8.3%

COc1c(CCC[P+](c2ccccc2)(c2ccccc2)c2ccccc2)cc2c(c1OC)OCO2.[I-]
LC50 (M14; SRB): > -4 log M

CC[C@H](C)[C@H](NC(=O)CNC(=O)[C@@H](N)CCCCN)C(=O)N[C@@H](CC(C)C)C(=O)N[C@@H](CCCCN)C(=O)N[C@@H](CCCNC(=N)N)C(=O)N[C@@H](CCC(=O)O)C(=O)N[C@@H](CCCCN)C(=O)N[C@@H](CCCNC(=N)N)C(=O)N[C@@H](CC(C)C)C(=O)N[C@@H](CCCNC(=N)N)C(=O)N[C@@H](CCCNC(=N)N)C(=O)N[C@@H](CCCCN)C(=O)N[C@@H](CC(N)=O)C(=O)N[C@H](C(=O)N[C@@H](Cc1c[nH]cn1)C(=O)N[C@@H](Cc1c[nH]c2ccccc12)C(=O)N1CCC[C@H]1C(=O)N[C@@H](CCC(=O)O)C(=O)N[C@@H](CCC(=O)O)C(=O)NCC(=O)N[C@@H](CCCCN)C(=O)N[C@@H](CC(C)C)C(=O)N[C@@H](CCCNC(=N)N)C(=O)N[C@@H](CCC(=O)O)C(=O)N[C@@H](Cc1ccccc1)C(=O)N[C@@H](Cc1ccccc1)C(=O)N[C@@H](Cc1ccccc1)C(=O)N[C@@H](Cc1ccccc1)C(=O)N[C@@H](CCC(=O)O)C(=O)N[C@@H](CC(C)C)C(=O)N[C@@H](CC(=O)O)C(=O)N[C@@H](CCC(=O)O)C(=O)N[C@@H](C)C(=O)N[C@@H](CCC(=O)O)C(=O)N[C@@H](CCCNC(=N)N)C(=O)N[C@H](C(=O)N[C@@H](CC(N)=O)C(=O)N[C@H](C(=O)O)C(C)C)C(C)C)C(C)C
log2 fold change (HeLa (mitotic); protein phosphorylation, TMT phosphoproteomics, measured: histone H3.2 Ser29; cell lysate; concentration not given, 15 min; reference: treated over control): 2.66

CC(C)N1CCC(NC2CCN(c3cccc(-c4cc5cc(F)ccc5[nH]4)c3)CC2)CC1
CC50 (SN12C): 7.01 µM

COc1c(C)c2c(c(O)c1C/C=C(\C)CCC(=O)O)C(=O)OC2
IC50 (A673; cell proliferation; muscle cancer): 0.589 µM

C/C=C(/C)C(=O)O[C@H]1C(C)=C2[C@H]([C@@H]1OC(=O)CCCCCCC)[C@@](C)(OC(C)=O)C[C@H](OC(=O)CCC)[C@@]1(O)[C@H]2OC(=O)[C@@]1(C)O
normalized enrichment score (HEK-293T; RNA-seq GSEA, measured: Hallmark mTORC1 signaling; 500 nM, 6 h; direction not given): 2.68

COc1cc(C(=O)c2c[nH]c3cc(-c4cccc(O)c4)ccc23)cc(OC)c1OC
wound confluence (MDA-MB-231; scratch wound healing; 50 nM, 72 h): 100%

CCC(=O)CCCCC[C@@H]1NC(=O)[C@H]2CCCCN2C(=O)[C@H]([C@@H](C)CC)NC(=O)[C@H](Cc2cn(OC)c3ccccc23)NC1=O
viability (OCI-Ly1; 1 µM, 120 h): 1.79%

Oc1ccc(C(c2ccc(O)cc2)(C(F)(F)F)C(F)(F)F)cc1
S phase cells (HepG2 spheroids; Hoechst flow cytometry; 0.01 µM, 96 h): 10.2 ± 2.55%

N.N.[Cl][Pt][Cl]
EC50 (A-375; viability, MTT; 72 h): 8.13 ± 3.18 µM

COc1cc(CCC[P+](c2ccccc2)(c2ccccc2)c2ccccc2)c(OC)c2c1OCO2.[I-]
LC50 (SN12C; SRB): -4.38 log M

A few entries again:
CCOC(=O)c1ccc(N2C(N)=C(C#N)C3(C(=O)Nc4ccccc43)C(C#N)=C2O)cc1 (stereo not shown)
mRNA fold change (Caco-2; qRT-PCR, measured: Bax; IC50; reference: untreated): 7.51

COc1c(CCC[P+](c2ccccc2)(c2ccccc2)c2ccccc2)cc2c(c1OC)OCO2.[I-]
LC50 (M14; SRB): > -4 log M

O=C(Nc1ccc2[nH]nc(-c3ccncc3)c2c1)[C@@H]1CCN(CC(=O)N2CCN(c3ccc(-c4ncccn4)cc3)CC2)C1
PI-positive cells (HCT116; IncuCyte; concentration not given, 8 (unit not given)): 2.17 count and 3.92 count and 2.92 count

C[C@]1(CO)Cc2ncn(-c3ccc(C#N)c(Cl)c3)c2C(=O)O1
subjects with drug-related TEAE (healthy European subjects; dose not given, single dose, all doses): 8.3%

N.N.[Cl][Pt][Cl]
EC50 (A-375; viability, MTT; 72 h): 8.13 ± 3.18 µM
